Results gathered from unrelated publications.
“And” joins repeats or separate records; there may be more than shown. Numbers after ± are the reported error.
BCHE: Cholinesterase (BCHE, Equus caballus, UniProt P81908)
Sequence of UniProt P81908 (whole entry, looked up): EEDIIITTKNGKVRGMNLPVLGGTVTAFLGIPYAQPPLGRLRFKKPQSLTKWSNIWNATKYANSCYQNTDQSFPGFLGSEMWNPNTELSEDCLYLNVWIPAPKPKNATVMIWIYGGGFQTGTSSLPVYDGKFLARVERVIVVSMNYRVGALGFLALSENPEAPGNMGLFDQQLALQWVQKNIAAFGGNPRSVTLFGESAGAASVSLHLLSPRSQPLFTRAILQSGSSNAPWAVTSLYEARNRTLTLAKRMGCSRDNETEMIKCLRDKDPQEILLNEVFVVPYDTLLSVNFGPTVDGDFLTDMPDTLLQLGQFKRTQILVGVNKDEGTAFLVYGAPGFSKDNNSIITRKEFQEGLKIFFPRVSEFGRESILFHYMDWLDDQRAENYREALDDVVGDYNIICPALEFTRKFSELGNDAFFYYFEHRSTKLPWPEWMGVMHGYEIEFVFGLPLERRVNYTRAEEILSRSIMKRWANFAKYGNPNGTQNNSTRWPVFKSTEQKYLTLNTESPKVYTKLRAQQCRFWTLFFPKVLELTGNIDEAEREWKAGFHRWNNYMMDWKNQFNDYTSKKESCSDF
GSK3A: Glycogen synthase kinase-3 alpha (GSK3A, Homo sapiens, UniProt P49840)
Sequence of UniProt Q9HCP0 (whole entry, looked up): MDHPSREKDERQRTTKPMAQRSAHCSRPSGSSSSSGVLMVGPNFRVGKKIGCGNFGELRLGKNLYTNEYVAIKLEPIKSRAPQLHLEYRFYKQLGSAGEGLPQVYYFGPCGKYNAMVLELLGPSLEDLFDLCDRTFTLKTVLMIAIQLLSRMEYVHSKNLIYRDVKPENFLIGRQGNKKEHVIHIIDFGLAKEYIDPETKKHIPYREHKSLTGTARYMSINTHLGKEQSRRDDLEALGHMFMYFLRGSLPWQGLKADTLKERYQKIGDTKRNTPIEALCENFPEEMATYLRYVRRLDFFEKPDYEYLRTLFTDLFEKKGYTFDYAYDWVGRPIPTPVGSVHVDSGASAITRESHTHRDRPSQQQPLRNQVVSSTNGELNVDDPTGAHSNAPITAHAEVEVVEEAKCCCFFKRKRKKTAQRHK
Sequence of UniProt P49840 (whole entry, looked up): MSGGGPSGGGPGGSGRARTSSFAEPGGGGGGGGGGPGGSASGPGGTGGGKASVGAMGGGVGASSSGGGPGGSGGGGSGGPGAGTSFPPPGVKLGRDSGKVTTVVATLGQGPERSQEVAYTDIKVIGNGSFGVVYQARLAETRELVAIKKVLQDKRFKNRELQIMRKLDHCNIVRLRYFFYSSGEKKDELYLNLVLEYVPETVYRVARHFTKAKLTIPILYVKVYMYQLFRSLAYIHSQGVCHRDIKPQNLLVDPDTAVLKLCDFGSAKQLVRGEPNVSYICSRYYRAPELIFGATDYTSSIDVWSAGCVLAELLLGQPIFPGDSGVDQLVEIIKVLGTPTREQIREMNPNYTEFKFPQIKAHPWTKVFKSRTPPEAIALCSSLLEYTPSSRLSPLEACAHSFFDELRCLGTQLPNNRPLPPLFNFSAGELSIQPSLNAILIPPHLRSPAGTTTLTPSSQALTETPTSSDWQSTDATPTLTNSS
Sequence of UniProt P10635 (whole entry, looked up): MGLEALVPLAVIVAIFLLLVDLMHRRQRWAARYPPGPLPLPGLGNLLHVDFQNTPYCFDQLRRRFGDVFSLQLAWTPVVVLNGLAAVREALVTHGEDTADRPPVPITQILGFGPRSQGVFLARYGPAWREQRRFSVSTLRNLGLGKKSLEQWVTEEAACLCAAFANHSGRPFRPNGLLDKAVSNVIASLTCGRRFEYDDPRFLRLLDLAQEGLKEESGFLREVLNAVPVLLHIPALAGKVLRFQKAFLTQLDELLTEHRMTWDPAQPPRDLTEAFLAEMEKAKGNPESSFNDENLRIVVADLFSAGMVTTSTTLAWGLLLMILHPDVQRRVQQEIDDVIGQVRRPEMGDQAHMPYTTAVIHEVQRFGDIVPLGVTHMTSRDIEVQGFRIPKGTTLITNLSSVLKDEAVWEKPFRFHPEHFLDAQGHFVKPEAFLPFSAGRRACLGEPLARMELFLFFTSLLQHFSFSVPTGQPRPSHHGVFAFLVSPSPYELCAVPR
Sequence of UniProt P48145 (whole entry, looked up): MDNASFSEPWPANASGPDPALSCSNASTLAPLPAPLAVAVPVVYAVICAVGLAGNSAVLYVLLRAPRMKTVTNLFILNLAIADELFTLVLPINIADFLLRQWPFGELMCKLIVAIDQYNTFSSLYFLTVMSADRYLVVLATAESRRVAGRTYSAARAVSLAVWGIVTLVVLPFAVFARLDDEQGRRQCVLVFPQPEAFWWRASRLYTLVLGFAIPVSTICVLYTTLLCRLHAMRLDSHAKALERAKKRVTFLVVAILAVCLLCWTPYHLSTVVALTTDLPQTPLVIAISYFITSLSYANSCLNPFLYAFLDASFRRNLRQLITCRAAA
Sequence of UniProt P07711 (whole entry, looked up): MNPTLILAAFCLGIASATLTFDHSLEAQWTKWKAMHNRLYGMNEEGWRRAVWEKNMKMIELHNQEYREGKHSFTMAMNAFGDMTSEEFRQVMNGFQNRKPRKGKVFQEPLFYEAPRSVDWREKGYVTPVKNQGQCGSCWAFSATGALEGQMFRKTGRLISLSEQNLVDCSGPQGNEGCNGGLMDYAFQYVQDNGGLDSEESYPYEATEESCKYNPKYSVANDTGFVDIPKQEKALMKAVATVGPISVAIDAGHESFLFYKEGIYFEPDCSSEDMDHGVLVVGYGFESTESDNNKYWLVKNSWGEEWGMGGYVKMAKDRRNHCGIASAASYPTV
Sequence of UniProt O43318 (whole entry, looked up): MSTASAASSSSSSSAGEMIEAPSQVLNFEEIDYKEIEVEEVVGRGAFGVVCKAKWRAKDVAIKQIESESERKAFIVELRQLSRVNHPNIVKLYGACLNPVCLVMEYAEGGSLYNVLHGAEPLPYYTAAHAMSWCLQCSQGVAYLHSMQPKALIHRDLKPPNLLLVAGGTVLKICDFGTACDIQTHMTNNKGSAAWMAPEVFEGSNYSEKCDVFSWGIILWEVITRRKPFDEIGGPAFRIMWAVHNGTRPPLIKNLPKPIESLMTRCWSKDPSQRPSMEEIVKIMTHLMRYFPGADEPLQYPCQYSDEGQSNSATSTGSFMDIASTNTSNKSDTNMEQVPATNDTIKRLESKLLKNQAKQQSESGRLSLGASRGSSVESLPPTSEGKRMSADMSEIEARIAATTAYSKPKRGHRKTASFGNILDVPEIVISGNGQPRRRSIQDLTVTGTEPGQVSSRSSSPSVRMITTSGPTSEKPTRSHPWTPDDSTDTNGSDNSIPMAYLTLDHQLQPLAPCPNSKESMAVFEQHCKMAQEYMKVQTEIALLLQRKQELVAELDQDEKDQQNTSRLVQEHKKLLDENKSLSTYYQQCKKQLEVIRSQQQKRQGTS
Sequence of UniProt O96017 (whole entry, looked up): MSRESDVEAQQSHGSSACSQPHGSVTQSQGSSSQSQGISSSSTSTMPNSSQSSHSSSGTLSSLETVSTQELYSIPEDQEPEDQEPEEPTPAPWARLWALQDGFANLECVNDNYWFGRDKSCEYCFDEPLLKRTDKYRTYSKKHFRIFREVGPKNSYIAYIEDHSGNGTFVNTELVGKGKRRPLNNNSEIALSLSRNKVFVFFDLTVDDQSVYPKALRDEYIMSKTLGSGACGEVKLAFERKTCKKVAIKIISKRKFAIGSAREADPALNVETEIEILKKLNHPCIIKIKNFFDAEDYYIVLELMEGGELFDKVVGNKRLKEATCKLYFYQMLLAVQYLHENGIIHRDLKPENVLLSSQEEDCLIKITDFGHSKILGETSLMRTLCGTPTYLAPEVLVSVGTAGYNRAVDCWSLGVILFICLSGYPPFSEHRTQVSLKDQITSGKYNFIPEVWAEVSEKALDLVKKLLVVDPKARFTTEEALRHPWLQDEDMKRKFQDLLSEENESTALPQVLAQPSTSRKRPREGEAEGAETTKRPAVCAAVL
Sequence of UniProt Q61205 (whole entry, looked up): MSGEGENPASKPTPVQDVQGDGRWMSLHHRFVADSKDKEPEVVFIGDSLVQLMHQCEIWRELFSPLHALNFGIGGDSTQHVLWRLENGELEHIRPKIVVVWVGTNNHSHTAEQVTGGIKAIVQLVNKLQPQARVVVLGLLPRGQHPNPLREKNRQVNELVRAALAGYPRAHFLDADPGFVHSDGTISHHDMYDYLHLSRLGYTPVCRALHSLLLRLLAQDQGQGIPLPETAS

SMILES | tested on | assay | system | setting | how to read | measurement | result
O=C1NC2(CC2)COc2ncc(F)cc2[C@H]2COCCN2c2ccn3ncc1c3n2 |  |  | Sprague-Dawley rat, male, serum | oral, 10 mg/kg/day, end of treatment, 4-week subacute toxicity |  | serum total bilirubin | 0.7 ± 0.3 µmol/L
CS(C)(=O)=Nc1ccc(-c2ccc(-c3nc4cc(O[C@@H]5CO[C@H]6[C@@H]5OC[C@H]6O)[nH]c4cc3F)cc2)cc1 | Death-associated protein kinase 2 (DAPK2, Homo sapiens, UniProt Q9UIK4) | enzyme activity, inhibitor |  | 10 µM |  | inhibition | 11%
CCCCCCCCCCCCCCCCCC(=O)NC[C@H]1CC[C@H](C(=O)N[C@@H](CCC(=O)NCCCOCCOCCOCCCNC(=O)COCC(=O)N[C@@H](Cc2ccc(O)cc2)C(=O)NC(C)(Cc2ccccc2)C(=O)N[C@@H](CC(C)C)C(=O)N[C@@H](CCCC)C(=O)N[C@@H](CCCNC(=N)N)C(=O)N2CCC[C@H]2C(=O)N[C@@H](CCCNC(=N)NC)C(=O)N[C@@H](CC(N)=O)C(N)=O)C(=O)O)CC1 (stereo partly drawn) | Neuropeptides B/W receptor type 1 (NPBWR1, Homo sapiens, UniProt P48145) | antagonist, DiscoverX GPCR panel |  | 1 µM |  | inhibition | 57%
N#Cc1ccc(N2N=C3c4ccc(C(=O)O)cc4CCC3C2C2CCCC2)cc1Cl (stereo not drawn) | DNA (cytosine-5)-methyltransferase 3A, with DNMT3L (DNMT3A, Homo sapiens, UniProt Q9Y6K1) | enzyme activity |  | 10 µM |  | inhibition | 3%
CC[C@H](C)[C@H](NC(=O)[C@H](CO)NC(=O)[C@H](Cc1ccc(O)cc1)NC(=O)[C@H](Cc1ccc(O)cc1)NC(=O)[C@H](CC(N)=O)NC(=O)CNC(=O)[C@H](CO)NC(=O)[C@H](Cc1ccc(O)cc1)NC(=O)[C@H](CO)NC(=O)[C@H](CO)NC(=O)[C@H](CC(N)=O)NC(=O)COCCOCCNC(=O)CN1CCN(CC(=O)O)CCN(CC(=O)O)CCN(CC(=O)O)CC1)C(=O)N[C@@H](CC(C)C)C(N)=O [copper-64 labelled] |  | dynamic PET | mouse, tamoxifen-induced PDAC, blood | intravenous, 0.1 µg/mouse, 1.4 min |  | tumour uptake | 24.6 %ID/mL
N[C@H](C(=O)N1CCCC1)C1CCN(c2nccc3c(-c4ncc(Cl)cc4Cl)cccc23)CC1 | Serine/threonine-protein kinase Chk2 (CHEK2, Homo sapiens, UniProt O96017) | kinase activity, inhibitor |  | 10 µM, together with: ATP 1 mM |  | inhibition | -0.8%
CN(C)[C@H]1C[C@@]23CC[C@@]4(O2)C(=CC[C@]2(C)[C@@H](c5ccc6ccncc6c5)CC[C@H]24)C=C3[C@@H](O)[C@@H]1O | Mitogen-activated protein kinase 1 (MAPK1, Homo sapiens, UniProt P28482) | ATP probe labelling, inhibitor, KiNativ profiling |  | 1 µM |  | inhibition | 8.4%
CN[C@@H]1[C@H](O)[C@H](NC)[C@H]2O[C@]3(O)[C@H](O[C@@H]2[C@H]1O)O[C@H](C)C[C@H]3NC(=O)Cc1ccc(Cl)cn1 | D(4) dopamine receptor (DRD4, Homo sapiens, UniProt P21917, del265-296) | ligand displacement, radioligand |  | 10 µM |  | inhibition | 2%
Nc1ccc(/C=C/C(=O)N2CCc3c(oc4c(-c5ccc(F)cc5)cc(-c5ccc(C(=O)N6CCC(F)(F)CC6)cn5)cc34)C2)cn1 | Tyrosine-protein kinase ABL1, phosphorylated (ABL1, Homo sapiens, UniProt P00519, T315I) | binding, competition with immobilised ligand |  | 1 µM |  | remaining binding | 100%
Cc1cc(-c2ccc3ccccc3c2)nnc1NCCN1CCN(C)CC1 | Cytochrome P450 2D6 (CYP2D6, Homo sapiens, UniProt P10635) | substrate | recombinant enzyme | 100 nM, 0.5 h |  | remaining compound | 119%
CC(C)N | BCHE | enzyme activity, inhibitor, Ellman |  | 20 µM |  | inhibition | 38.3%
N=C(N)NCCC[C@@H]1NC(=O)[C@H](CCCCNC(=O)CCC(NC(=S)Nc2ccc(CC3CN(CC(=O)O)CCN(CC(=O)O)CCN(CC(=O)O)CCN3CC(=O)O)cc2)C(=O)NCCCC[C@@H]2NC(=O)[C@@H](Cc3ccc(O)cc3)NC(=O)[C@H](CC(=O)O)NC(=O)CNC(=O)[C@H](CCCNC(=N)N)NC2=O)NC(=O)[C@@H](Cc2ccc(O)cc2)NC(=O)[C@H](CC(=O)O)NC(=O)CNC1=O (stereo partly drawn) [scandium-44 labelled] |  | ex vivo γ-counting | female athymic nude mice, U-87 MG xenograft, skin | intravenous, 4 h, together with: cRGD 50 mg/kg blocking |  | tissue uptake | 0.117 ± 0.025 %ID/g
CC(C)[C@H]1NC(=O)C[C@H]2/C=C/CCSSC[C@@H](NC1=O)C(=O)N[C@H](Cc1cccc3ccccc13)C(=O)NCC(=O)O2 | GSK3A | enzyme activity, inhibitor |  | 10 µM |  | inhibition | 1.1%
N#CCc1ccc(O)cc1 | Alpha-glucosidase MAL12 (MAL12, Saccharomyces cerevisiae S288c, UniProt P53341) | inhibitor |  | 100 µg/mL, 0.4167 h, together with: p-nitrophenyl glucoside substrate |  | inhibition | 42.7 ± 3.47%
O=[N+]([O-])c1ccc(/C=N/C23CC4CC(CC(C4)C2)C3)o1 | Procathepsin L (CTSL, Homo sapiens, UniProt P07711) | enzyme activity, inhibitor |  | 100 µM, with preincubation |  | inhibition | 6%
C[C@H](NCc1ccc(-c2ccc(C(F)(F)F)cc2)cc1)C(N)=O | GABAA receptor chloride channel, rat | binding, radioligand binding | biochemical | 1 µM, together with: [3H]TBOB 3.0 nM |  | inhibition | 0%
CC(C)(C)C(=O)OCOP(=O)(OCOC(=O)C(C)(C)C)C1CCCN(O)C1=O (stereo not drawn) | SK-OV-3 |  |  |  |  | log GI50 | -6.29 log M
CN(/N=C/c1ccccc1C(=O)O)c1nc(-c2ccccc2Cl)cs1 | Casein kinase II subunit alpha' (CSNK2A2, Homo sapiens, UniProt P19784) | enzyme activity, inhibitor |  | 1 µM |  | inhibition | -12.5%

SMILES | tested on | assay | system | setting | how to read | measurement | result
CC(C)CC(O)(CC(C)C)c1cn(C(=O)N2CCCC2)nn1 | Platelet-activating factor acetylhydrolase IB subunit alpha1 (Pafah1b3, Mus musculus, UniProt Q61205) | probe labelling, inhibitor, competitive ABPP-SILAC, refers to: Pafah1b3 | mouse T cells | concentration not given, 4 h, protein level | baseline: treated over DMSO cells, lower = stronger inhibition | median SILAC activity ratio | 1.22
c1ccc(CN2CCNCC2)cc1 | BCHE | enzyme activity, inhibitor, Ellman |  | 20 µM |  | inhibition | 40.9%
CC(=O)NC[C@@H]1[C@@H](O)C[C@H]2[C@H](O)C[C@@H](CO)N12 | Spodoptera litura β-N-acetylglucosaminidase |  | crude enzyme | 3.42 µM, run 2, together with: p-nitrophenyl GlcNAc |  | inhibition | 89.3%
NCC1CCN(Cc2ccccc2)CC1 | BCHE | enzyme activity, inhibitor, Ellman |  | 20 µM |  | inhibition | 40.8%
C=CC(=O)Nc1cc(-c2nn(C3CCC(N4CCN(C(C)=O)CC4)CC3)c3ncnc(N)c23)ccc1Oc1ccccc1 (stereo not drawn) | Mitogen-activated protein kinase kinase kinase 7 (MAP3K7, Homo sapiens, UniProt O43318) | inhibitor, KiNativ profiling | biochemical | 2 µM |  | inhibition | -4.6%
CCOC(=O)[C@](CC)(CCCSCCOCCOCCNC(=O)c1ccc(-c2c3ccc(=N)c(S(=O)(=O)O)c-3oc3c(S(=O)(=O)O)c(N)ccc23)c(C(=O)O)c1)NC(=O)c1ccc(C2CC2)c(Cc2ccc(F)cc2)n1 | GSK3A | enzyme activity, inhibitor |  | 10 µM |  | inhibition | -13%
Cc1ccc2c(n1)c(-c1cccc(S(C)(=O)=O)c1)c(C)n2C/C(F)=C/CN | Metabotropic glutamate receptor 5 (GRM5, Homo sapiens, UniProt P41594) | ligand displacement, radioligand |  | 10 µM |  | inhibition | 16%
CC[C@H](C)[C@@H]([C@@H](CC(=O)N1CCC[C@H]1[C@H](OC)[C@@H](C)C(=O)N[C@H](C)[C@@H](O)c1ccccc1)OC)N(C)C(=O)[C@@H](NC(=O)[C@H](C(C)C)N(C)C(=O)OCc1ccc(NC(=O)[C@H](CCCNC(N)=O)NC(=O)[C@@H](NC(=O)CCCCCN2C(=O)CC(SC[C@H](NC(=O)[C@H](CC(=O)O)NC(=O)[C@H](Cc3ccc(O)cc3)NC(=O)[C@H](Cc3c[nH]c4ccccc34)NC(=O)[C@@H](N)CCCNC(=N)N)C(=O)O)C2=O)C(C)C)cc1)C(C)C (stereo partly drawn) |  |  | C57BL/6 mouse, healthy, liver | intraperitoneal, 2.5 mg/kg, 24 h |  | concentration | not detected
COc1ccccc1-c1n[nH]c2nc(N[C@H]3CC[C@H](NS(=O)(=O)CC(C)C)CC3)ncc12 |  | bead binding, competition bead pull-down, refers to: LINJ.35.3390 | Leishmania donovani extract | 10 µM | baseline: vehicle | relative abundance | 0.76
Cc1cc(C(=O)Nc2nc3cccc(C)c3n2[C@H]2CCCCN(C(=O)/C=C/CN(C)C)C2)ccn1 | Trypanosoma brucei |  | STIB795, mouse acute HAT model | oral, 25 mg/kg once daily for 4 days, day 17 | baseline: mice | survival | 66.7%
O=C1NC(=O)c2c1c1cc(F)c[n+]3c1c1c2c2cc(O)ccc2[n]1[Ru-4]312([N]=C=S)[S+]3CC[S+]1CC[S+]2CC3 (stereo not drawn) | Mitogen-activated protein kinase kinase kinase 9 (MAP3K9, Homo sapiens, UniProt P80192) | enzyme activity |  | 100 nM, human enzyme, together with: 10 µM ATP | baseline: untreated | remaining activity | 74%
CN[C@@H]1[C@H](O)[C@H](NC)[C@H]2O[C@]3(O)[C@H](O[C@@H]2[C@H]1O)O[C@H](C)C[C@H]3NC(=O)Cc1cc(Cl)ccn1 | Glutamate receptor ionotropic, NMDA 1 (Grin1, Rattus norvegicus, UniProt P35439) |  |  | 10 µM |  | inhibition | 10%
O=C(O)c1ccccc1/C=N/Nc1nc(-c2ccccc2Cl)cs1 | Casein kinase I isoform gamma-1 (CSNK1G1, Homo sapiens, UniProt Q9HCP0) | enzyme activity, inhibitor |  | 1 µM |  | inhibition | 3.37% and 10.3%
COc1ccccc1-c1n[nH]c2nc(NC3CCN(C(=O)Cc4ccc(F)cc4F)CC3)ncc12 |  | bead binding, competition bead pull-down, refers to: LMJF.21.1552 | Leishmania donovani extract | 10 µM | baseline: vehicle | relative abundance | 0.98
CCCCC1(C2CCCC2)Cc2cc(OCCCC(=O)O)c(Cl)c(Cl)c2C1=O (stereo not drawn) | Anoctamin-1 (Ano1, Mus musculus, UniProt Q8BHY3) | ion current, inhibitor | HEK293 transfected | 10 µM, at +80 mV |  | inhibition | 52.9 ± 2.3%
COc1ccc(F)cc1S(=O)(=O)Nc1cnc2c(c1)C(=O)NCCO2 | adenosine transporter | radioligand binding |  | 10 µM |  | inhibition | -19%
O=C(CN1CN(c2ccccc2)C2(CCN(C(=O)c3cnc4[nH]ncc4c3)CC2)C1=O)NCC(F)(F)F | Serine/threonine-protein kinase ULK1 (ULK1, Homo sapiens, UniProt O75385) | inhibitor |  | concentration not given |  | inhibition | < 50%
NC1CCCCC1 | BCHE | enzyme activity, inhibitor, Ellman |  | 20 µM |  | inhibition | 32.1%

Some of these lines once more:
SMILES | tested on | assay | system | setting | how to read | measurement | result
Nc1ccc(/C=C/C(=O)N2CCc3c(oc4c(-c5ccc(F)cc5)cc(-c5ccc(C(=O)N6CCC(F)(F)CC6)cn5)cc34)C2)cn1 | Tyrosine-protein kinase ABL1, phosphorylated (ABL1, Homo sapiens, UniProt P00519, T315I) | binding, competition with immobilised ligand |  | 1 µM |  | remaining binding | 100%
Cc1cc(-c2ccc3ccccc3c2)nnc1NCCN1CCN(C)CC1 | Cytochrome P450 2D6 (CYP2D6, Homo sapiens, UniProt P10635) | substrate | recombinant enzyme | 100 nM, 0.5 h |  | remaining compound | 119%
CC(C)N | BCHE | enzyme activity, inhibitor, Ellman |  | 20 µM |  | inhibition | 38.3%
N=C(N)NCCC[C@@H]1NC(=O)[C@H](CCCCNC(=O)CCC(NC(=S)Nc2ccc(CC3CN(CC(=O)O)CCN(CC(=O)O)CCN(CC(=O)O)CCN3CC(=O)O)cc2)C(=O)NCCCC[C@@H]2NC(=O)[C@@H](Cc3ccc(O)cc3)NC(=O)[C@H](CC(=O)O)NC(=O)CNC(=O)[C@H](CCCNC(=N)N)NC2=O)NC(=O)[C@@H](Cc2ccc(O)cc2)NC(=O)[C@H](CC(=O)O)NC(=O)CNC1=O (stereo partly drawn) [scandium-44 labelled] |  | ex vivo γ-counting | female athymic nude mice, U-87 MG xenograft, skin | intravenous, 4 h, together with: cRGD 50 mg/kg blocking |  | tissue uptake | 0.117 ± 0.025 %ID/g
